Experimental data of several laboratories.
A part holds a random share of what one study measured. Changes are numbered by the printed parent chain.

Series 1
Target: UBE2M UBC core domain (UniProt P61081)
Method: yeast two-hybrid
Matrix: yeast
Setting: mostly zero background
Reference: not given
Direction: higher = stronger interaction
B1: NSMCE1 RING domain (UniProt Q8WV22); chain RETYPDAVKICNICHSLLIQGQSCETCGIRMHLPCVAKYFQSNAEPRCPHCNDYWPHEIPKV
B2: TRIM10 RING domain (UniProt Q9UDY6); chain SVTSLADEVNCPICQGTLREPVTIDCGHNFCRACLTRYCEIPGPDLEESPTCPLCKEPFRPGSFRP
B3: UBE4A RING domain (UniProt Q14139); chain LQQQEEETYADACDEFLDPIMSTLMCDPVVLPSSRVTVDRSTIARHLLSDQTDPFNRSPLTMDQIRPNTELKEKIQRWLAERKQQKEQLE
B4: RNF43 RING domain (UniProt Q68DV7); chain SGSSCSSAPVCAICLEEFSEGQELRVISCLHEFHRNCVDPWLHQHRTCPLCMFNITEGDSFS
B5: MSL2 RING domain (UniProt Q9HCI7); chain LLPYFRQSLSCCVCGHLLQDPIAPTNSTCQHYVCKTCKGKKMMMKPSCSWCKDYEQFEENKQ
Construct (chain): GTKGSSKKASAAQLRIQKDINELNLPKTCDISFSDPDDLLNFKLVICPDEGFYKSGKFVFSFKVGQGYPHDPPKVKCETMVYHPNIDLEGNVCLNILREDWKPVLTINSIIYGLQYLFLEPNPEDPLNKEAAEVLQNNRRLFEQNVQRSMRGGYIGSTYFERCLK
Molecule	lacZ reporter activity
LKQVSIRENCCSLCCDEVADTQLKPCGHSDLCMDCALQLETCPLCRKEIVSRIRQI (RSPRY1 RING domain (UniProt Q96DX4))	0
B1 (NSMCE1 RING domain)	0
B2 (TRIM10 RING domain)	0
KIKDLNEHIVCCLCAGYFVDATTITECLHTFCKSCIVKYLQTSKYCPMCNIKIHETQPLL (PCGF1 RING domain (UniProt Q9BSM1))	0
B3 (UBE4A RING domain)	0
B4 (RNF43 RING domain)	0
B5 (MSL2 RING domain)	0
MANWVFCNRCFQPPHRTSCFSLTNCGHVYCDACLGKGKKNECLICKAPCRTVLLSK (RNF212 RING domain (UniProt Q495C1))	0

Series 2
Target: NFE2, bZIP domain (human)
Method: DHFR protein complementation
Matrix: yeast
Setting: single substitutions, most at no-binding floor
Reference: wild-type JUN-FOS pair
Direction: higher = stronger binding
Parent: JUN, bZIP domain (human); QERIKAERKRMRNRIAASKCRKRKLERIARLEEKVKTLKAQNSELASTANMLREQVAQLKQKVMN; partner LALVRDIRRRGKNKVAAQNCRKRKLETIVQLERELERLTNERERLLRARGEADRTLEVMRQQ
Substitution	binding fitness
M51E	-1.33 natural log
L31K	-1.36 natural log
A29I	-1.48 natural log
I28W	-1.16 natural log
K39C	-1.49 natural log
A49T	-1.28 natural log
R30V	-1.47 natural log
L38R	-1.53 natural log
E54W	-1.53 natural log

Series 3
Target: CCND2, cyclin fold, Cln2 fusion (human)
Method: yeast growth competition, sequencing
Matrix: yeast
Setting: weak parent motif
Reference: not given
Direction: higher = stronger binding
Parent: CDKN1A docking peptide (human); SKACRRLFGPVDS
Substitution	normalised enrichment score
SKACRRLFGGVDS [P10G]	0.534
SKACRRLFKPVDS [G9K]	-0.0648
SCACRRLFGPVDS [K2C]	0.348
SKKCRRLFGPVDS [A3K]	0.478
SKACRRLFGEVDS [P10E]	0.226
SKACRRLFGPCDS [V11C]	0.626
SKACRRLFGLVDS [P10L]	-0.287
SKACRYLFGPVDS [R6Y]	0.224
SKACRRLFGPVLS [D12L]	0.0976
SKACRRLFGVVDS [P10V]	-0.0503

Series 4
Target: Max-binding protein MNT, bHLH-zipper, MAX partner unstated (MNT, Homo sapiens, UniProt Q99583, residues 220-300)
Method: protein-binding microarray
Molecule type: double-stranded DNA, one strand shown
Matrix: in vitro
Concentration: not given
Setting: k-mer, scored over probes, only values ≥0.25
Direction: higher = stronger binding
Construct (chain): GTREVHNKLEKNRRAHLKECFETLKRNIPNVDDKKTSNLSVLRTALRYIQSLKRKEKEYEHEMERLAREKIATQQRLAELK
Sequence	E-score
ACGTGTCA	0.425
CGTGGACC	0.282
ACGTGTCC	0.391
CGTGTCAG	0.327
AATATGGC	0.293
CACGCAGG	0.286
CGCGCACG	0.413
AGCGTGAC	0.375
AAACATGC	0.367
ACATGGGA	0.316
CACACGAG	0.401
CCCTCACC	0.27
AGAACACG	0.399
CGTGACAA	0.331
GCGTGTCA	0.422
CCCCTACC	0.263
CACCCATG	0.37

Some of these lines once more (series 1):
Molecule	lacZ reporter activity
B4 (RNF43 RING domain)	0
B3 (UBE4A RING domain)	0
B5 (MSL2 RING domain)	0
B2 (TRIM10 RING domain)	0
MANWVFCNRCFQPPHRTSCFSLTNCGHVYCDACLGKGKKNECLICKAPCRTVLLSK (RNF212 RING domain (UniProt Q495C1))	0
LKQVSIRENCCSLCCDEVADTQLKPCGHSDLCMDCALQLETCPLCRKEIVSRIRQI (RSPRY1 RING domain (UniProt Q96DX4))	0
